Published values gathered from unrelated publications.
A part holds a random share of what one study measured. Changes are numbered by the printed parent chain.

Series 1 — method: protein-binding microarray; form: double-stranded DNA, one strand shown; medium: in vitro; tested at: 2540 nM top; setting: 60-bp whole probe; together with: salmon DNA 0.4 mg/ml; relative to: random background probes; reading: higher = stronger binding; constant ends, left off below: GCCTAGCAC … GTCTTGATTCGCTTGACGCTGCTG
Target: Interferon regulatory factor 3, full length, phosphomimetic (IRF3, Homo sapiens, UniProt Q14653, residues 1-427, S386D/S396D/S398D/S402D/T404D/S405D)
Construct (chain): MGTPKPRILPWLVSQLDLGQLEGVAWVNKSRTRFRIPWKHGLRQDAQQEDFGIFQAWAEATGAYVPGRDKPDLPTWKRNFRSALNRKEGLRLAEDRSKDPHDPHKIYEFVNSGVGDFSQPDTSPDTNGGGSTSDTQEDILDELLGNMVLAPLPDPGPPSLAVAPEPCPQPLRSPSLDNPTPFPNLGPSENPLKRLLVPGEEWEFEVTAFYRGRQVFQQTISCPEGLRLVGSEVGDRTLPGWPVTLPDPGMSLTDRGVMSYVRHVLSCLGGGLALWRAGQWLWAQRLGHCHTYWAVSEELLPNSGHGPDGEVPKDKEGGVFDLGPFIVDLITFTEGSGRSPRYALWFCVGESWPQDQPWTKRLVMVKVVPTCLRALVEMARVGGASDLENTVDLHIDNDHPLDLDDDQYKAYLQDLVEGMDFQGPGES
Sequence	fitted relative affinity [z-score]
TCATGTTTACAGATGTTACTGTGCTAG	0.296
GACGGGTTCGGGTATCGGGACGTGCTA	0.279
TCACCTTCACCTCTCTGACTGTGCTAG	0.539
GACGGTTTCGGTTTTCGGGACGTGCTA	9.99
GACGGTATCCTTCTCCTGCCGTGCTAG	6.88
TTAGGTTTCGGATATCGGTTAGTGCTA	6.03
GACTGTTTCGGTTCCGGGACGTGCTAG	9.22
GACGGTTTCGACTACCGGGACGTGCTA	2.75
TTAGGTCTCCGTATCGGTTAGTGCTAG	2.69
GACGGTATCCTATTGCTGACGTGCTAG	3.84
GACGTTATCGGTTTCGGGACGTGCTAG	4.81
TCATTTCTAATATTCTGACTGTGCTAG	2.19
TCAATATTCTGCTTTGCACTGTGCTAG	0.212
GTCGGTCTCGGACTGGGGACGTGCTAG	0.848
GACGGTTTGCTTTCCCTGACGTGCTAG	2.08
TGAGGTTTCCTTTCCCTTTAGTGCTAG	10.5
GACGATTTCCTACTGCTGACGTGCTAG	2.3
GACGAACTGGGGACTAGAGACGTGCTA	-0.411
GACGGACTGAGACTGGAGACGTGCTAG	-0.536

Series 2 — method: RNA Bind-n-Seq; form: RNA; medium: in vitro; tested at: 365 nM; relative to: no-protein control; reading: higher = stronger binding
Target: RNA binding protein fox-1 homolog 2, RRM domain, GST-SBP tag (RBFOX2, Homo sapiens, UniProt O43251-10, residues 100-194)
Setting: natural RNA segment, single round, ends assumed
Constant ends, left off below: GGGAGUUCUACAGUCCGACGAUC … UGGAAUUCUCGGGUGCCAA
Residues (chain): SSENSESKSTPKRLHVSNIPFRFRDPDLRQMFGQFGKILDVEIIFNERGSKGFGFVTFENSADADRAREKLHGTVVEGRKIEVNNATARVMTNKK
Sequence	RBNS enrichment (R)
CUUCACCAUAGCAGCAGCAGACCUCCAUAUGGAGGAGGAAGAGGACACCUGGAGCCAAAGCAGGAGUUGGAGGGACAAUGCCACUAUGAAUCUAAUGUUUAAAAGGUUAG	0.719
UGUAUGACCAAAGCAUUUGAUGCCAAAAUUUGACGUUAAAGUAAUGAUUUGAUUUCCUGCCCUGGUUUUGAAGGUCCAUUUUUUUCCCUUUUGCAUUGACUUGCUUGUUU	0.664
CUUCAAACCACAUGAGAUCUCUGCCACCCACCCACAAUCAAGCCCUAUAUUCCCAAGGAGGCUGACUCCGGGGGCCCUUCCCCCCAGGCCAGCAAUGUAUUCCGGGGAUG	0.325
UCAUAGCUCAAGAAUUGUUAGCAAAUGACAGAUUUCUGUAAGCCUAUAUAUAUAGUCAAAUCGAUUUAGUAAGUAUGUUUUUUAUGUUCCUCAAAUCAGUGAUAAUUGGU	0.509
CGGCAGGUGGCAGGUGGUGUUGGGGAUGGUCCUGGAGGGGAUGGCCUGGGCAUACGCCGCCUCCAGCUGCUCAUAACCACCGAUCUGGUUGAAAGCUGGAGGGUGGGGCA	0.653
UUUGAGCAGCCAUAUUAUAAAAUGGAUCAUCAGAGCUGAGUGACAACACGAGAGUGGUACUGGUUUCAUGUGCGAGGACUUCCAUGGACUGAACAUGGAUGCCGGAGCAG	0.26
CAAGCAUCUGAAACGUGCCAGCCUCUGCGGUUCCCGUUAUCAUCUUAGGGGGCAGAAGCCAAUGGGUGGAAAGAACAGUAGAGGUUCUGUAUAGCAUGGAAGUCAACUGC	0.592
UCUUCUCACCCUCCUCCCUCCCCUUAGCCAUCACUUCUGGGAAGUAAAGAACUUGACUUAGUGCCGGGCUGUGUGCUUGGUUUGUCUUCUUUGCGCUGUCGGACCUAAGC	0.47

Series 3 — target: CCND3, cyclin fold, Cln2 fusion (human); method: yeast growth competition, sequencing; medium: yeast; setting: weak parent motif; relative to: not given; reading: higher = stronger binding
Starting sequence: BORA docking peptide (human); SSLRRKLFLDGNG; partner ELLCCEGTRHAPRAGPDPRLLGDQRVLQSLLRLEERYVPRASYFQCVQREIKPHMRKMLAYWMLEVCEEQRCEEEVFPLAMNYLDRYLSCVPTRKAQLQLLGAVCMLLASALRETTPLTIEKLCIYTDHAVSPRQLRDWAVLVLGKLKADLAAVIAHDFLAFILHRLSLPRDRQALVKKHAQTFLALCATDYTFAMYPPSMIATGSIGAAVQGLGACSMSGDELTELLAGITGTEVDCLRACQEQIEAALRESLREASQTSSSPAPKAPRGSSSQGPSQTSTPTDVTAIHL
Variant	normalised enrichment score
SSLRRKAFLDGNG [L7A]	0.11
SSLRRKLFFDGNG [L9F]	0.299
SSLRRKLFLDGNA [G13A]	0.121
SSLRRKLLLDGNG [F8L]	0.395
SSLARKLFLDGNG [R4A]	0.104
SALRRKLFLDGNG [S2A]	0.158
SSLRRKLFLDGAG [N12A]	0.165
SSARRKLFLDGNG [L3A]	0.0269

Series 4 — method: DHFR PCA, deep sequencing; medium: yeast; together with: (+)-ABA 17 µM; relative to: wild-type fitted maximum; reading: higher = stronger binding
Target: ABI1, truncated, D143A, DHFR fusion (Arabidopsis thaliana)
Setting: methotrexate growth selection, single substitutions
Starting sequence: PYL1, truncated, DHFR fusion (Arabidopsis thaliana); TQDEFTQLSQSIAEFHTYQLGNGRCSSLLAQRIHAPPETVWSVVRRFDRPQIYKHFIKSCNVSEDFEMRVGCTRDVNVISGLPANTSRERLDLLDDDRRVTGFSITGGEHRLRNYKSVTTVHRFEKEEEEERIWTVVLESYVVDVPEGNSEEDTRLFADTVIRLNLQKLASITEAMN; partner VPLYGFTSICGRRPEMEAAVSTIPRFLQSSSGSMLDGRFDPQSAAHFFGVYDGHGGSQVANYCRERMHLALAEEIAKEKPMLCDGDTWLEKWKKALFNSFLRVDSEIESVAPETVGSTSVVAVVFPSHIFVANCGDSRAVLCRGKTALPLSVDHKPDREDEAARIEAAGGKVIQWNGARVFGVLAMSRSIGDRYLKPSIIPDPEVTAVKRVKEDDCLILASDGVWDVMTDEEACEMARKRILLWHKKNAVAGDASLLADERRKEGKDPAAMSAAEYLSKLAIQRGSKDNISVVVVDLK
Variant	relative binding score
G81S	27%
I33V	70%
Y53P	-6.52%
S11H	80.5%
H122Q	21.3%
F15I	33.3%
D97K	99.9%
K168L	16.5%
H55M	93.2%
F66T	71.3%
S117C	22.6%
W134G	87.6%
D65E	82.3%
T135L	-4.09%
E14A	65%
S26R	54.2%
E130G	88.5%
A30C	83.1%
L156N	73%
C72S	81.5%

Series 5 — target: CREBZF, bZIP domain (human); method: DHFR protein complementation; medium: yeast; relative to: wild-type JUN-FOS pair; reading: higher = stronger binding
Setting: single substitutions, most at no-binding floor
Starting sequence: JUN, bZIP domain (human); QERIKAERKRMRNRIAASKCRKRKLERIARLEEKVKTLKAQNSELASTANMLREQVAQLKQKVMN; partner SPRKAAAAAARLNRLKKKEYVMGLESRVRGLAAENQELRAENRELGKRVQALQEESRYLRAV
Variant	binding fitness [natural log]
L52V	-1.51
R53M	-1.48
A40C	-1.46
I28K	-1.52
R53Q	-1.62
Q41N	-1.52
Q58P	-1.52
V56S	-1.52
A57H	-1.18
E54M	-1.35
S43W	-1.49
A49G	-1.52

Other studies, line by line
Substance	target	assay	test system	setting	how to read	endpoint	value
PhoQ, residues 284 288 289 292 302 303 AEGLLW	PhoP, residues 12 14 15 18 19 GQALL (Escherichia coli, UniProt P23836)	Sort-seq, item: YFP reporter	E. coli	PhoQ-PhoP variant library, together with: 10 µM Mg2+	relative to: high Mg2+ state, higher = stronger signaling	fold induction	4.48

For quick reference, copied from above (series 4):
Variant	relative binding score
F66T	71.3%
S117C	22.6%
W134G	87.6%
D65E	82.3%
T135L	-4.09%
E14A	65%
S26R	54.2%
E130G	88.5%
A30C	83.1%
L156N	73%
C72S	81.5%
